Measured values collected from several papers.
A part holds a random share of what one study measured.

Study 1
Target: Phosphate system positive regulatory protein PHO4, full length, GST-tagged (PHO4, Saccharomyces cerevisiae, UniProt P07270, residues 1-312)
Technique: competition protein-binding microarray
Molecule type: double-stranded DNA, one strand shown
Medium: in vitro
Concentration: 2 µM
Setting: whole 60-bp probe, lowest competitor level
With: Cbf1 competitor, 0.05 µM
Reading: higher = stronger binding
Measurement: fluorescence intensity
All sequences stand within: … GTCTTGATTCGCTTGACGCTGCTG
Construct (chain): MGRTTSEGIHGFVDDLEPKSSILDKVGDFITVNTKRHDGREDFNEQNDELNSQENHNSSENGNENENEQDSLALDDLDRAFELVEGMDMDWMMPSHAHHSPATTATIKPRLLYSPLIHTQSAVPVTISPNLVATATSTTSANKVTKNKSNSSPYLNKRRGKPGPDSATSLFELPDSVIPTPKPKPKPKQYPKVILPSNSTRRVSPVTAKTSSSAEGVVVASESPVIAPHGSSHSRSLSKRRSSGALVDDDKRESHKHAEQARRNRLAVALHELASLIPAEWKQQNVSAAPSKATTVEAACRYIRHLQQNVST
TCTAACATATCCTTTCTCATGACAGTATTCATGGAT: 4810 a.u.
GAACAAGGTGCCCGTCACATGGCAGAAGGCTACGCC: 8010 a.u.
TGCGCAACAACTTGTAGAGTGGGTGTATGTCTAGAA: 4350 a.u.
TGCGCAACAACTTGGGCAGTGGGTGTATGTCTAGAA: 3540 a.u.
TCGACTACTCAGTCGGACGTGGCCGTTCAGAAGGTG: 5190 a.u.
ATAGTCAATGAAACATTCGTGACGGAACAATGAGAT: 5460 a.u.
AAATTACTAAGTTGGGGTGTGGGTGACGCCGTATGA: 6000 a.u.
TAGGATGACCGTCACCATGTGATCCAAATGCACTCA: 8720 a.u.
TTTACTAGTAATTTGCACGTGATGGGGCGAGATGGT: 15900 a.u.
TTTGCCTGGCAATATAACGTGCGATAGGTATTCATC: 8490 a.u.
TAGCCCCAAAATCCACACGTGACGGAAATGATTTAG: 13900 a.u.
CAACCGCATCGGCCCAACCTGATCTTGCAATTAGCA: 2790 a.u.
CAAGGGATTTTGACGCCCGTGACGGAGGATGATTTG: 6080 a.u.
GCGCTGTTCTGCGGATGCGTGACGGTATCCGCAAAG: 5400 a.u.
AATCACCAATGGCAAAGCGTGCAAAATCAACATTTG: 7120 a.u.
GTCTTGTCTCATTTTCACGTGAGCTTCCCCACTTCA: 9550 a.u.

Study 2
Target: Ras GTPase-activating protein-binding protein 1, full length (G3BP1, Homo sapiens, UniProt Q13283)
Sequence of UniProt Q13283 (whole entry, looked up): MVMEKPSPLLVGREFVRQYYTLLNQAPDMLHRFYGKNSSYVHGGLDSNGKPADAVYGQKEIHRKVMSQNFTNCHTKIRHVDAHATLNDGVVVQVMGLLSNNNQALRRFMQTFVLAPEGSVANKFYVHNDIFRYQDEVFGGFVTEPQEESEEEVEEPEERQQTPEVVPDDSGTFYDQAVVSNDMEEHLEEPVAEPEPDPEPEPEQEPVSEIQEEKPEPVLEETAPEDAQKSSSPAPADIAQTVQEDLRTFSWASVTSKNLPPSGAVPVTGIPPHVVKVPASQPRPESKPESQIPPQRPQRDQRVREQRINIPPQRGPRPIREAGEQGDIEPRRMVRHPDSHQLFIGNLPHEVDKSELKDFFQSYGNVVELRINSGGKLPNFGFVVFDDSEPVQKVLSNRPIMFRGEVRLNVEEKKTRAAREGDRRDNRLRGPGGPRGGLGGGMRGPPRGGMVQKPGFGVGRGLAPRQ
Technique: RNA Bind-n-Seq
Molecule type: RNA
Medium: in vitro
Concentration: 200 nM
Setting: whole 134-nt RNA, ends assumed
With: 150 mM LiCl
Reference: input library
Reading: higher = stronger binding
Measurement: log2 enrichment
Library: 7-deaza-guanosine replaces G
All sequences stand within: GGGAGUUCUACAGUCCGACGAUC … UGGAAUUCUCGGGUGUCAAGG
AGUCCUGUGCUACACAUCGUAUGUACCGAAUCGGUUUUUGGAAAAAAAGGUUUUUGGAAAGUAUUAUGUUACGCCGUUCGGAUCUGCACU: -3.16
UCAAGUCCUGUGCUACACAUCGUAUGUACCGAAUCGGGGUUGGUUGGGUUGGGGAAAGUAUUAUGUUACGCCGUUCGGAUCUGCACUUCC: 0.34
AGGAAAAUGUUUAUAGGAGGCCUUAGCUGGGACACUACAAAGAAAGAUCUGAAGGACUACUUUUCCAAAUUUGGUGAAGUUGUAGACUGC: -1.51
UCCUGUGCUACACAUCGUAUGUACCGAAUCGGGGAAAAAAGGAAAAAAGGAAAAAAGGGGAAAGUAUUAUGUUACGCCGUUCGGAUCUGC: -0.186
AGUCCUGUGCUACACAUCGUAUGUACCGAAUCGGUUUUUGGUUUUUGGUUUUUGGGGAAAGUAUUAUGUUACGCCGUUCGGAUCUGCACU: -0.838
UGGCCCUUCCCCUGGAGCCAUGCUGGGCCCUAGCCCGGGUCCCUCGCCGGGCUCCGCCCACAGCAUGAUGGGGCCCAGCCCAGGGCCGCC: 1.33
CUCAAGUCCUGUGCUACACAUCGUAUGUACCGAAUCGGGAAAGGGAGGGAGGGAAAGUAUUAUGUUACGCCGUUCGGAUCUGCACUUCCA: -0.0879
UUUCUCCAUUGCAGGAAGUUGGCAGUAUCAUCGGAAAGGUAAGACAAUUUCACUUCAACUUCAAUUACCAUUUAGUAAUUCUGGAUUGAA: -0.997

Study 3
Target: Interferon regulatory factor 5, full length, phosphomimetic (IRF5, Homo sapiens, UniProt Q13568-2, residues 1-514, S451D/S453D/S456D/S462D)
Technique: protein-binding microarray
Molecule type: double-stranded DNA, one strand shown
Medium: in vitro
Concentration: 940 nM top
Setting: 60-bp whole probe
With: salmon DNA 0.4 mg/ml
Reference: random background probes
Reading: higher = stronger binding
Measurement: fitted relative affinity
All sequences stand within: GCCTAGCAC … GTCTTGATTCGCTTGACGCTGCTG
GACGATTTCGGGTATCGTGACGTGCTA: 0.748 z-score
TTAGGTATCGTCACTGGGTTAGTGCTA: 2.99 z-score
GATGATTTCAGACTGGAGACGTGCTAG: -0.576 z-score
TTAGGTATCGACTTTCGGCTAGTGCTA: 5.26 z-score
TTAGATATCGGGTTTGGATTAGTGCTA: 0.166 z-score
TTATGTTTCCTTTCCCTTTAGTGCTAG: 1.63 z-score
TTAGATAACAGTTTCGATTAGTGCTAG: 8.07 z-score
GACGATATCAGTTTCGAGTCGTGCTAG: 6.24 z-score
TCATGTACATCTCTCTTACTGTGCTAG: 0.991 z-score
TTTTTTTTCTGATCCATTTTGTGCTAG: 1.4 z-score
GACGATTTCGGGTATCGATACGTGCTA: 4.28 z-score
GACGATATCAGTCTAGAGACGTGCTAG: -0.342 z-score
TTAAGTTTCGGTCTCGGTTAGTGCTAG: 15.2 z-score
TTAGGTTTCGACACTGGGTAAGTGCTA: 8.34 z-score
GTCGATATCAGTATCGAGACGTGCTAG: 2.99 z-score
TTAGGACTGGGTTTCGGCTAGTGCTAG: 3.12 z-score
AACGGTTTCCTTATCCTGACGTGCTAG: 1.48 z-score
AAACTTACCTCACTCGTTAAGTGCTAG: 0.609 z-score
TCAGTGCTCATGCTTCTTACTGTGCTA: -0.343 z-score

Study 4
Target: Sal-like protein 4, full length isoform B (SALL4, Homo sapiens, UniProt Q9UJQ4-2, residues 1-616)
Technique: universal PBM
Molecule type: double-stranded DNA, one strand shown
Medium: in vitro
Concentration: not given
Setting: 8-mer, flanks averaged, mean of replicates
Reading: higher = stronger binding
Measurement: E-score
ACGAGGTC: -0.0904
AACCGGCG: -0.355
AACCGTAT: -0.0465
CACCATAC: -0.0553
GAAGGGGC: -0.267
CAAAGTTG: 0.0307
CGTCAACG: -0.181
GGGACCTA: -0.212
CTCCCAAA: 0.042
AGTCGCTG: -0.301
ATCGGAAC: -0.189
ACTCTGAT: 0.0162
GTTGTCTA: 0.178
AATGTCGA: 0.145
ATATAAAG: 0.302
ACACCCCA: -0.1
GAAGGATC: -0.144
CTATGGAA: 0.188

Study 5
Target: Histone acetyltransferase KAT6A, both winged helices, GST fusion (KAT6A, Homo sapiens, UniProt Q92794, residues 1-181)
Technique: protein binding microarray
Molecule type: double-stranded DNA, one strand shown
Medium: in vitro
Concentration: not given
Setting: 8-mer, flanks averaged, mean of 2 arrays, mostly near background
Reference: not given
Reading: higher = stronger binding
Measurement: E-score
Construct (chain): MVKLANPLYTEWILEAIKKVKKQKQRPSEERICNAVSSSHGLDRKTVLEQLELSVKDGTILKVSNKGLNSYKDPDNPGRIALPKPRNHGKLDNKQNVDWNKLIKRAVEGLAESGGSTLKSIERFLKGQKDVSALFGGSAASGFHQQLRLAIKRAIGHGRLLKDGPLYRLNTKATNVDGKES
ATCTCGTA: -0.0642
TCCTCACA: -0.0725
AGTGCGGG: 0.12
TACTCGCA: 0.0941
GCACGCAC: 0.158
AAGTAGAC: -0.176
AACGAATT: -0.229
ACACTTAT: -0.177
CAGGAATA: 0.0493
ACACTCCT: -0.0949
ACATAATG: 0.111
GGCAGACC: 0.0215
ACCTAGAT: -0.202
AAGCCCAG: -0.188
ATGGCTAC: -0.201
TGGGGTAA: -0.149
GGTGATTA: 0.0232
TCCCCGGA: -0.0115
GGCCTTGA: -0.15
ATTTGATC: -0.0622
AAATCTTA: -0.131
CAAGCCCC: -0.14
AGATTGCT: -0.0737
GGCCAAGA: -0.118
CTTGTACC: -0.0991
